Measurements collected from several papers.
Parts stem from different laboratories: compare values within a part only.

Study 1
Target: Histone acetyltransferase KAT6A, winged helix 1, GST fusion (KAT6A, Homo sapiens, UniProt Q92794, residues 1-85)
Technique: protein binding microarray
Molecule type: double-stranded DNA, one strand shown
Medium: in vitro
Tested at: not given
Notes: 8-mer, flanks averaged, mean of 2 arrays, mostly near background
Baseline: not given
Direction: higher = stronger binding
Construct (chain): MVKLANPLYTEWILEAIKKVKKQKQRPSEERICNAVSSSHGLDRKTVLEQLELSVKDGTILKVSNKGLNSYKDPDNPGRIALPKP
`GTAGGCAC` gave an E-score of 0.0134.
With `ATCTTAAA` the E-score was -0.175.
`ACCCCGAC` gave an E-score of 0.218.
With `ACGAACTC` the E-score was 0.0265.
The E-score of `CGTGGACA` is reported as 0.139.
For `CATATCCA`, the E-score was 0.0107.
The E-score of `AACATACC` is reported as -0.0134.
For `GGACGAAC`, the E-score was 0.0887.
The E-score of `TTTACAAA` is reported as -0.162.
The E-score of `AGCACAGC` is reported as -0.0719.
The E-score of `CAGTGGCG` is reported as 0.0156.
For `GCAATCAC`, the E-score was 0.00327.

Study 2
Target: Prothrombin, mature alpha-thrombin (F2, Homo sapiens, UniProt P00734)
Technique: aptamer microarray, sandwich
Molecule type: DNA with 2'F-ANA
Medium: in vitro
Tested at: 200 nM
Notes: whole 15-mer aptamer, many near background
Together with: Cy3 exosite-II aptamer, 400 nM
Direction: higher = stronger binding
Strand: GGTTGGTGTGGTTGG
`2'F-ANA at 8 9 11 12 14` — result for “mean fluorescence intensity”: 233 a.u.
`2'F-ANA at 1 6 7 8 9 10 11 14`: “mean fluorescence intensity” 54.1 a.u.
`2'F-ANA at 3 4 5 7 8 11 12 14 15` — result for “mean fluorescence intensity”: 58.2 a.u.
Under “mean fluorescence intensity”, `2'F-ANA at 1 2 4 6 7 10 13` is recorded as 46.4 a.u.
Under “mean fluorescence intensity”, `2'F-ANA at 2 6 8 9 12 15` is recorded as 665 a.u.
For `2'F-ANA at 1 2 3 6 8 9 11 12 13`, “mean fluorescence intensity” read 294 a.u.
Under “mean fluorescence intensity”, `2'F-ANA at 2 5 9 11 12 13 14 15` is recorded as 57.4 a.u.
For `2'F-ANA at 2 3 4 5 6 7 11 12`, “mean fluorescence intensity” read 149 a.u.

Study 3
Target: RING finger protein unkempt homolog, zinc fingers 1-6, GST-SBP tag (UNK, Homo sapiens, UniProt Q9C0B0, residues 30-357)
Sequence of UniProt Q9C0B0 (30-357, looked up): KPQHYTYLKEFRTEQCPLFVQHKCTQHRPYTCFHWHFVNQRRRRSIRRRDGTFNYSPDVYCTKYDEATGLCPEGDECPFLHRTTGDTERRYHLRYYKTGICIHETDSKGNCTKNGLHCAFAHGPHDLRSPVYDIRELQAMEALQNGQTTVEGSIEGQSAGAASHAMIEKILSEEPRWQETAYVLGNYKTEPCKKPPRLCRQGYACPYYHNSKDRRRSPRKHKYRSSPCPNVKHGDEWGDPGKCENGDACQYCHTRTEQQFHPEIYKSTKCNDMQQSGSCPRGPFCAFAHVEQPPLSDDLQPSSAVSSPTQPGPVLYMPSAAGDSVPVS
Technique: RNA Bind-n-Seq
Molecule type: RNA
Medium: in vitro
Tested at: not given
Notes: RNA with constant flanks, human-mouse chimeric sites, ends assumed
Baseline: input RNA pool
Direction: higher = stronger binding
Constant ends, left off below: GGGAGUUCUACAGUCCGACGAUC … CAACAGAGGAUUGAGCAUCA
For `AAAGCCCAAGUAUUUUGAAAAAACUCGAACAGAUUUGACAAGGGUAGCCAGCUUGGAGUCUAGCAAUUUGCCAAUGUUGCUUACCAACUGGGGGCUUGUUUUUCUUUUCUUCUUUCAAAU`, the bound/input enrichment was 0.212 ratio.
`UCUGGUCACACUCGUGUGUAUGGUGUUUGCUUUGUGGACACUUCACUGGGCAAGUUUUUCAUCGGCCAGUUUUCAGAUGACCGCCACUGUUCCAGAUUUAGGACGCUAGUGGCACACUAU` gave a bound/input enrichment of 0.19 ratio.
With `GGUGGGGUGGUCAUUGCCGUUUGAGCUGCUGAUUUUCAUGAGUCGCCUUCAAAACUCUCGUGUAGGGUUGACAAUGUGGGGGGGUGGGAAAUCUAGCUUAUUCUUUUAUUUUCAAGUCCA` the bound/input enrichment was 5.67 ratio.
For `UACUACUAUGAUGGUGAUAUUGGCAAUUAUUAUUAUGGACAGGGUCAUCCCAUGAAGCCUCAUAGAAUCCGCAUGACUCAUAACUUGCUGCUAAAUUAUGGUUUAUACCGAAAAAUGGAA`, the bound/input enrichment was 0.319 ratio.
`CUGAGGAUACCACUGAAAGAGACAUUAAAGAAUCAUUUGAGGGCUCUGUUCGUGCAAGAAUAGUCACUGAUCGGGAAAACUGGGUCCCCAAAGGGUUUGGUUUUGUAGACUUUAAUAGUG` gave a bound/input enrichment of 0.411 ratio.
For `CUGGCCUUCUGAGCAUCAGGGGCCUCCUUUCGUAUAGUCACUGCUUCUGCAUCAGAUACUUUCAGCUGCAACUCCCUACUGGGUGGGGCACCUAUCUCAGGCAGAAGGUUUUGGUACCCU`, the bound/input enrichment was 0.128 ratio.
The bound/input enrichment of `ACCUCCCCCUCCCGCCUGCUUUUUGAACCGCUUUUUGGAAAGUUUUUGGCGUUUCUUUUCCUUCCCCAUACAAAGUGAUUACAGUUUCCCCCGCAAGGGUCUAUCGAAGGGCUUGACGGA` is reported as 0.521 ratio.
For `ACCUCCCCCUCCCGCCUCACCCCACCCAAGAAAGAAAGAAAGUUUUUGGCGUUUCUUUUCCUUCCCCAUACAAAGUGAUUACAGUUUCCCCCGCAAGGGUCUAUCGAUUCACCCUUCGGA`, the bound/input enrichment was 0.862 ratio.

Further values, each from its own experiment
The fold induction of `PhoQ, residues 284 288 289 292 302 303 SCCLKL` is reported as 10.6 (PhoP, residues 12 14 15 18 19 LQHIR (Escherichia coli, UniProt P23836); Sort-seq, item: YFP reporter; E. coli; PhoQ-PhoP variant library, together with: 10 µM Mg2+; baseline: high Mg2+ state, higher = stronger signaling).

For quick reference, copied from above (study 3):
For `ACCUCCCCCUCCCGCCUCACCCCACCCAAGAAAGAAAGAAAGUUUUUGGCGUUUCUUUUCCUUCCCCAUACAAAGUGAUUACAGUUUCCCCCGCAAGGGUCUAUCGAUUCACCCUUCGGA`, the bound/input enrichment was 0.862 ratio.
`CUGAGGAUACCACUGAAAGAGACAUUAAAGAAUCAUUUGAGGGCUCUGUUCGUGCAAGAAUAGUCACUGAUCGGGAAAACUGGGUCCCCAAAGGGUUUGGUUUUGUAGACUUUAAUAGUG` gave a bound/input enrichment of 0.411 ratio.
`UCUGGUCACACUCGUGUGUAUGGUGUUUGCUUUGUGGACACUUCACUGGGCAAGUUUUUCAUCGGCCAGUUUUCAGAUGACCGCCACUGUUCCAGAUUUAGGACGCUAGUGGCACACUAU` gave a bound/input enrichment of 0.19 ratio.
For `UACUACUAUGAUGGUGAUAUUGGCAAUUAUUAUUAUGGACAGGGUCAUCCCAUGAAGCCUCAUAGAAUCCGCAUGACUCAUAACUUGCUGCUAAAUUAUGGUUUAUACCGAAAAAUGGAA`, the bound/input enrichment was 0.319 ratio.
For `CUGGCCUUCUGAGCAUCAGGGGCCUCCUUUCGUAUAGUCACUGCUUCUGCAUCAGAUACUUUCAGCUGCAACUCCCUACUGGGUGGGGCACCUAUCUCAGGCAGAAGGUUUUGGUACCCU`, the bound/input enrichment was 0.128 ratio.
